Measured values collected from several papers.
Every numbered part comes from another study and shows a few of its results, in no order.
Chain of UniProt Q9BYP7 (whole entry, looked up): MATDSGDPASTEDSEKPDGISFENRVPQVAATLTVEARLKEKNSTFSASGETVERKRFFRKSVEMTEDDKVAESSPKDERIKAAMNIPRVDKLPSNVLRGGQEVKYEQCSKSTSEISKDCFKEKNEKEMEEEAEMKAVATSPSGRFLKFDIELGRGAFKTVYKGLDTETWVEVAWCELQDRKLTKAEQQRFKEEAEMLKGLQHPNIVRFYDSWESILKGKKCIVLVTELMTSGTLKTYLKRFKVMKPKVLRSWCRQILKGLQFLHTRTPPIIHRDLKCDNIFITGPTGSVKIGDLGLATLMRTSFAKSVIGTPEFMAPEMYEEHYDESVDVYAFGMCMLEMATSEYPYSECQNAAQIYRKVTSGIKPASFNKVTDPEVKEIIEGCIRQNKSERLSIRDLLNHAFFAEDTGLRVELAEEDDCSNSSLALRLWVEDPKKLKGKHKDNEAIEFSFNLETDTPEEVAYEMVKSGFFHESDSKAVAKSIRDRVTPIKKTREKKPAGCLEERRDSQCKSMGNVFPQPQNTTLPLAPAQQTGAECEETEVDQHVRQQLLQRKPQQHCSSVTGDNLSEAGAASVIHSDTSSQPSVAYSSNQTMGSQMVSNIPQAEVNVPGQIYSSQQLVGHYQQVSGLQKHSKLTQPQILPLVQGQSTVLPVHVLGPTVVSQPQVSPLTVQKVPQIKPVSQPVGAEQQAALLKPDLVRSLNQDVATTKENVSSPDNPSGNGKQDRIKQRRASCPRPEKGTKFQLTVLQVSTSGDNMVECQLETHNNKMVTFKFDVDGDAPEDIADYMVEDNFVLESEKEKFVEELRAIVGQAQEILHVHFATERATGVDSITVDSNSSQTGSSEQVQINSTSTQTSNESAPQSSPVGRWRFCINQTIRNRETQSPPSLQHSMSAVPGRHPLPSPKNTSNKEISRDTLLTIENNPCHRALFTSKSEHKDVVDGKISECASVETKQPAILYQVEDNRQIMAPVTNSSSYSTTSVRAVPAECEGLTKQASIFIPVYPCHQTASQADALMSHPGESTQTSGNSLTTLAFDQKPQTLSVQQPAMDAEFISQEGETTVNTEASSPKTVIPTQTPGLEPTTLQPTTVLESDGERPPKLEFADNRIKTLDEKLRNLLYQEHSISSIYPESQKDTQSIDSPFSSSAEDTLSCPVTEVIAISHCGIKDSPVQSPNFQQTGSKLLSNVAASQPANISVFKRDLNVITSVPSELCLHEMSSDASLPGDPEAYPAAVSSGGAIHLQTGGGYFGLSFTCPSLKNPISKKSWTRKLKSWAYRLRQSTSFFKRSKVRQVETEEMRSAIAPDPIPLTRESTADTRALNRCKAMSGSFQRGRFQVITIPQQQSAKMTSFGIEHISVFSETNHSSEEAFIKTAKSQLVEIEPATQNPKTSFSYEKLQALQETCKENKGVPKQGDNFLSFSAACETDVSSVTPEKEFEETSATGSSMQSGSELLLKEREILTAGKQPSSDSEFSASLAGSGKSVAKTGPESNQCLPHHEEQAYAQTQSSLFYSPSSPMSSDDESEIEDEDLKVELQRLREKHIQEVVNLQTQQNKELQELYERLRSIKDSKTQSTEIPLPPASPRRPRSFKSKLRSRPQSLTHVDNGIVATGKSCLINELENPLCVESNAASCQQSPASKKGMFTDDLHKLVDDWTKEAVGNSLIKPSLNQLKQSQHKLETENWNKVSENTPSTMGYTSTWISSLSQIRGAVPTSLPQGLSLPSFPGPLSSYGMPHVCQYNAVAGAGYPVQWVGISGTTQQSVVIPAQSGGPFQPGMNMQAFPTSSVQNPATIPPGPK
Chain of UniProt O43781 (whole entry, looked up): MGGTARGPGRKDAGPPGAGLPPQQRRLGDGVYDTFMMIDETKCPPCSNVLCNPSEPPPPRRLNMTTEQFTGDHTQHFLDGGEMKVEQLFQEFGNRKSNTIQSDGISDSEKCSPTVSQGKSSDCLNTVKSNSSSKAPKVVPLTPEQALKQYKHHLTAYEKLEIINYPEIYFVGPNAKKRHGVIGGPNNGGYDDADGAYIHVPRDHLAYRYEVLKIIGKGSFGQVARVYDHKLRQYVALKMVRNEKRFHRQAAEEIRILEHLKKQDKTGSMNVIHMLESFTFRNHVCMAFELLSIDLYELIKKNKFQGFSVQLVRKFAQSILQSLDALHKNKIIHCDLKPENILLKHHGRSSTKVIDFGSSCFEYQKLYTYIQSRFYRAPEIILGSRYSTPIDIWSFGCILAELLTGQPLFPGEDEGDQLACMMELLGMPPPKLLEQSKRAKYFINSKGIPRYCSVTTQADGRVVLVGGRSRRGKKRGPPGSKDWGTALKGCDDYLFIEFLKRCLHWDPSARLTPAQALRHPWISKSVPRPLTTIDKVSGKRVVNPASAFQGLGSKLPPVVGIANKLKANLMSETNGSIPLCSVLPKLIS
Chain of UniProt Q9H3Y6 (whole entry, looked up): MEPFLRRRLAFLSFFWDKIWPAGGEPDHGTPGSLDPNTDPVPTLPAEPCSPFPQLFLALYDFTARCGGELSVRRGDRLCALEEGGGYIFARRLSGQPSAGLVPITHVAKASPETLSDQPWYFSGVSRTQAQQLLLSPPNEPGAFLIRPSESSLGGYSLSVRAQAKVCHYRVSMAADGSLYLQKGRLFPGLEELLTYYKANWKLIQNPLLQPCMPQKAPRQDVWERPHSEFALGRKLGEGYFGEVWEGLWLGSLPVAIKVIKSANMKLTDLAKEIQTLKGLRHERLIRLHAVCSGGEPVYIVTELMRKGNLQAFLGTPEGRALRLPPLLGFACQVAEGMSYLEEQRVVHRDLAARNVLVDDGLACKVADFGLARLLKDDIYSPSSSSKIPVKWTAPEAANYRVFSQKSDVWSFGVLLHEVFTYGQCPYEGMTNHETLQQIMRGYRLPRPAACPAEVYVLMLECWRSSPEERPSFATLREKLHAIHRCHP
Chain of UniProt P00519 (whole entry, unmodified, looked up): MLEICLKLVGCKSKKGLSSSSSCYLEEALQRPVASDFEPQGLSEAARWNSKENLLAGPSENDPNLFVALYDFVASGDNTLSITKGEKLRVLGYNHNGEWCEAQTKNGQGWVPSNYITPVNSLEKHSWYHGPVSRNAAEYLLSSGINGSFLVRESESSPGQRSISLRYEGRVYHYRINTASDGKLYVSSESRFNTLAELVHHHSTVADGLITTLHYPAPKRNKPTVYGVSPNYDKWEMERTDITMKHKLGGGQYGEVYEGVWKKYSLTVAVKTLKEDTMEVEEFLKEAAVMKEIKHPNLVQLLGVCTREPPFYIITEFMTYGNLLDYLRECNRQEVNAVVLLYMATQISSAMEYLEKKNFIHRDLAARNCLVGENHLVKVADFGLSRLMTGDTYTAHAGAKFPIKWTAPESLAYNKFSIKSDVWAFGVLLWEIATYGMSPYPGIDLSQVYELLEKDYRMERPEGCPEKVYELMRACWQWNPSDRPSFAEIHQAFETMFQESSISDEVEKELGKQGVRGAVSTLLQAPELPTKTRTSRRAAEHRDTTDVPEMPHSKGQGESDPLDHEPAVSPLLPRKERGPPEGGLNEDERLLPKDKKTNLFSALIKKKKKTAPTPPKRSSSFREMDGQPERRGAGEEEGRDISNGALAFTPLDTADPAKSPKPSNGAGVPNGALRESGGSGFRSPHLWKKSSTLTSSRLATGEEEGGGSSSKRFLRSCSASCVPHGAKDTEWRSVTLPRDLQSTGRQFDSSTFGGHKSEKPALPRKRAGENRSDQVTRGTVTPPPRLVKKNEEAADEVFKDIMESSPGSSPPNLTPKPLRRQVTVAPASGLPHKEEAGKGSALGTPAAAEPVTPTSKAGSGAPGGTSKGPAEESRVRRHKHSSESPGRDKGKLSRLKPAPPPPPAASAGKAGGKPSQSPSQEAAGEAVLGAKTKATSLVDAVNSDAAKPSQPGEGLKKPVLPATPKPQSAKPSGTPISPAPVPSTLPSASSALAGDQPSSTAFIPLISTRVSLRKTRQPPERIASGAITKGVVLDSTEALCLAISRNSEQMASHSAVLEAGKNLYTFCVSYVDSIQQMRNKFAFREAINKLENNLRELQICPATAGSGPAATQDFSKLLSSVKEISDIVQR
Chain of UniProt P51451 (whole entry, looked up): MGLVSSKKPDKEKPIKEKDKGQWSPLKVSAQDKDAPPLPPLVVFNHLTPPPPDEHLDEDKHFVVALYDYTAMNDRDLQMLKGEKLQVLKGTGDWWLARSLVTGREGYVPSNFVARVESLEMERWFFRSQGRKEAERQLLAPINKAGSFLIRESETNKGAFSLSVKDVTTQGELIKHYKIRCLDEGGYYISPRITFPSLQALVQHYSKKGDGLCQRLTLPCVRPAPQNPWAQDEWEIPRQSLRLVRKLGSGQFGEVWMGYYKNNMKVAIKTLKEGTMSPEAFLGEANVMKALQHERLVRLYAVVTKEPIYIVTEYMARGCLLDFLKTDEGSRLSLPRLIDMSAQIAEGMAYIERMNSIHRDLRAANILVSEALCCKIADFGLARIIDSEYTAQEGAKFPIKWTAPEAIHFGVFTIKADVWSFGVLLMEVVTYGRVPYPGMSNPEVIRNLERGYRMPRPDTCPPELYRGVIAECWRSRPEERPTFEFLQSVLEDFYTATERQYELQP

Sample 1
Target: Transcription factor SOX-2, HMG box (SOX2, Homo sapiens, UniProt P48431, residues 19-118)
Chain of UniProt P48431 (19-118, looked up): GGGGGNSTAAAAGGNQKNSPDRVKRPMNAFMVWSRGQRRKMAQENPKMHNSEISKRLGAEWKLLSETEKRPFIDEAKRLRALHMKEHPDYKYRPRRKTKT
Method: protein-binding microarray
Form: double-stranded DNA, one strand shown
Sample: in vitro
Tested at: not given
Notes: k-mer, scored over probes, only values ≥0.25
Reading: higher = stronger binding
With `AGTGAAT` the E-score was 0.368.
`AAAGAAA` has an E-score of 0.286.
The E-score of `ATTGTAC` is reported as 0.401.
`AAAAGGC` has an E-score of 0.33.
`GTAATTA` has an E-score of 0.28.
`AATCAGC` gave an E-score of 0.32.
With `AATTCAT` the E-score was 0.458.
The E-score of `CTTTGTA` is reported as 0.252.

Sample 2
Target: Ras GTPase-activating protein-binding protein 1, RRM domain (G3BP1, Homo sapiens, UniProt Q13283)
Chain of UniProt Q13283 (whole entry, looked up): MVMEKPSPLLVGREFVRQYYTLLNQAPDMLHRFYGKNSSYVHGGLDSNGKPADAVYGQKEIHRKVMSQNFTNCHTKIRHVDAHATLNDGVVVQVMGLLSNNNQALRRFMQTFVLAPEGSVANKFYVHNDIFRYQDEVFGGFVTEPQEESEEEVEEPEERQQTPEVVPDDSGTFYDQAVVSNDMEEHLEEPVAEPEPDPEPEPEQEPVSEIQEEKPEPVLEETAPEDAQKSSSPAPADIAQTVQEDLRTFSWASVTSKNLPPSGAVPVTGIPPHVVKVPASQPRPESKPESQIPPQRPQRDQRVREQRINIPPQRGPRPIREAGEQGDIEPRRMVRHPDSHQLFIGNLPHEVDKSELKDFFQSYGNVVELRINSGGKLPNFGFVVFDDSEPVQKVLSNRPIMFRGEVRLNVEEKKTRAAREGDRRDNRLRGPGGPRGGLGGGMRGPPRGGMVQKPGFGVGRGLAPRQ
Method: RNA Bind-n-Seq
Form: RNA
Sample: in vitro
Tested at: 1 µM
Notes: whole 134-nt RNA, ends assumed
With: 150 mM KCl
Baseline: input library
Reading: higher = stronger binding
For `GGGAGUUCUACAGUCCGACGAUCGCAGGAAGUAAAAACAAAUGGAAAUGCUUCGGAUAGUGGCAGGGGUGGGGGUUGCUAAGGAAAGGGUGGGAUAAAAGUGGGUAAAGAGUUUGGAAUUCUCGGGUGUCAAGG`, the log2 enrichment was 0.955.
`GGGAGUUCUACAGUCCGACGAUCUCCUGUGCUACACAUCGUAUGUACCGAAUCGGGGAAAAAGGGGUUUGGGGUUUUUGGGGAAAGUAUUAUGUUACGCCGUUCGGAUCUGCAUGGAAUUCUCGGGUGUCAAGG` gave a log2 enrichment of 1.35.
`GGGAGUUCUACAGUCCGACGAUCAGUCCUGUGCUACACAUCGUAUGUACCGAAUCAAACCCAAAUUUUUUUAAAUUUAAAAAAGUAUUAUGUUACGCCGUUCGGAUCUGCACUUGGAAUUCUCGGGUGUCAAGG` gave a log2 enrichment of -0.812.
`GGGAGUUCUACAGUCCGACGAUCCCUGUGCUACACAUCGUAUGUACCGAAUCGGGGUGGGGAAAAAAAGGGGAAAAAAAGGGGAAAGUAUUAUGUUACGCCGUUCGGAUCUGCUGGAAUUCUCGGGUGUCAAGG` has a log2 enrichment of 0.505.
With `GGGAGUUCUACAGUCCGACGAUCUACAGACAACACGCACCCACACAGACACAGAGGGAAGGGGUUGGGAUGGGGACAGGGUGCACAGCAGGGCGGGGUAGGACCCCAGCCCCUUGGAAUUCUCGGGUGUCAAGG` the log2 enrichment was -0.0566.
With `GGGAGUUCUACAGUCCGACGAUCGCAGGAAGUAAAAACAAAUGGAAAUGCUUCGGAUAGUGGCAGGGGUGGGGGUUGCUAAGGAAAGGGUGGGAUGGGAGUGCGUAAAGAGUUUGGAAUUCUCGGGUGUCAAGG` the log2 enrichment was 1.06.
The log2 enrichment of `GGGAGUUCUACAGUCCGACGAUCUAGAGACUUCAGAUGGAUUUUAAAAUUGAACACACUUGGGAUGGUUUUCCAGUGAAGCAUGAGCCCGUAUUUAUCAGGCUGAAUCCAGGUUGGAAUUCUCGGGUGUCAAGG` is reported as -0.373.
With `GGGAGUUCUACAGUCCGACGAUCCUCAAGUCCUGUGCUACACAUCGUAUGUACCGAAUCGGGCCGGGGCCGGCCGGGAAAGUAUUAUGUUACGCCGUUCGGAUCUGCACUUCCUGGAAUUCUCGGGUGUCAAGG` the log2 enrichment was -0.405.

Sample 3
Compound: c1ccc(-c2n[nH]c3c2oc2ccccc23)cc1
Observed: enzyme activity
Mode: inhibitor
Tested at: 0.5 µM
Baseline: control
The remaining activity was 99.5% (Tyrosine-protein kinase Srms (SRMS, Homo sapiens, UniProt Q9H3Y6)).
Tyrosine-protein kinase Blk (BLK, Homo sapiens, UniProt P51451) — remaining activity: 88.9%.
Serine/threonine-protein kinase WNK3 (WNK3, Homo sapiens, UniProt Q9BYP7) — remaining activity: 91.5%.
For 3-phosphoinositide-dependent protein kinase 1 (PDPK1, Homo sapiens, UniProt O15530): remaining activity read 94.7%.
The remaining activity was 100% (MAP kinase-activated protein kinase 3 (MAPKAPK3, Homo sapiens, UniProt Q16644)).
The remaining activity was 36.1% (Mitogen-activated protein kinase kinase kinase kinase 4 (MAP4K4, Homo sapiens, UniProt O95819)).
The remaining activity was 93% (Dual specificity tyrosine-phosphorylation-regulated kinase 3 (DYRK3, Homo sapiens, UniProt O43781)).
For Ephrin type-A receptor 4 (EPHA4, Homo sapiens, UniProt P54764): remaining activity read 95.5%.

Further values, each from its own experiment
`Cn1cncc1[C@](O)(COc1ccc(C#N)cc1-c1ccc(OC(F)(F)F)cc1)c1ccc(C#N)cc1` has a remaining binding of 94% (Tyrosine-protein kinase ABL1, phosphorylated (ABL1, Homo sapiens, UniProt P00519, E255K); binding, competition with immobilised ligand; 1 µM).

Excerpt of the above (sample 1):
With `AGTGAAT` the E-score was 0.368.
`AAAAGGC` has an E-score of 0.33.
